Assay results collected from several papers.
Each line is one published result; not all experiments were run side by side. Values joined by “and” are separate records of one study, mostly repeats; a detail may differ. ± gives the spread as reported.
Chain of UniProt Q9HC35 (whole entry, looked up): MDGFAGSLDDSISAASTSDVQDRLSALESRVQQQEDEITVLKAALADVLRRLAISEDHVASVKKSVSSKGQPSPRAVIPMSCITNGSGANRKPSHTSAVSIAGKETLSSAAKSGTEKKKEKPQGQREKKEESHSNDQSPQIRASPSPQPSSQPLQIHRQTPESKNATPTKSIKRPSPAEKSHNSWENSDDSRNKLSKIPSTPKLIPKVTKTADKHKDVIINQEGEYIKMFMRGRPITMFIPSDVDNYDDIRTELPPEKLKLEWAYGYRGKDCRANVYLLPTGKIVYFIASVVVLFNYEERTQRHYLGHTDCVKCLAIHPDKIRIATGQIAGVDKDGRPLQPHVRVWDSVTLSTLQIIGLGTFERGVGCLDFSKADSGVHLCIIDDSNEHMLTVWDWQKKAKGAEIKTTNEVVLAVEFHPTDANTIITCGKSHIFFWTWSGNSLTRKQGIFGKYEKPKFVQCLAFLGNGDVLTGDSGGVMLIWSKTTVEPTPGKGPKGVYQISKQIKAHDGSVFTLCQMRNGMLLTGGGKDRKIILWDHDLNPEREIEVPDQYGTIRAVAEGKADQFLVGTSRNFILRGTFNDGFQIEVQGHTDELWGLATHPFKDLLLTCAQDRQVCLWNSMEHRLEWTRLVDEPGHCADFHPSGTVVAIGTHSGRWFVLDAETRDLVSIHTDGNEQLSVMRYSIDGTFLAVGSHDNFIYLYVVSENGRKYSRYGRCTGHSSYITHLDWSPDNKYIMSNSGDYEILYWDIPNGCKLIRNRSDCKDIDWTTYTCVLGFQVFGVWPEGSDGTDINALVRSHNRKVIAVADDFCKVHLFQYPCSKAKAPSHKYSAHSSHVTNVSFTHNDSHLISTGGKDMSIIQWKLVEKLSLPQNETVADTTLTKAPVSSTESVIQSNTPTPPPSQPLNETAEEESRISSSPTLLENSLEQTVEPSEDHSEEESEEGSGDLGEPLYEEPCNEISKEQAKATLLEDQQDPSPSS
Chain of UniProt Q9UM73 (whole entry, looked up): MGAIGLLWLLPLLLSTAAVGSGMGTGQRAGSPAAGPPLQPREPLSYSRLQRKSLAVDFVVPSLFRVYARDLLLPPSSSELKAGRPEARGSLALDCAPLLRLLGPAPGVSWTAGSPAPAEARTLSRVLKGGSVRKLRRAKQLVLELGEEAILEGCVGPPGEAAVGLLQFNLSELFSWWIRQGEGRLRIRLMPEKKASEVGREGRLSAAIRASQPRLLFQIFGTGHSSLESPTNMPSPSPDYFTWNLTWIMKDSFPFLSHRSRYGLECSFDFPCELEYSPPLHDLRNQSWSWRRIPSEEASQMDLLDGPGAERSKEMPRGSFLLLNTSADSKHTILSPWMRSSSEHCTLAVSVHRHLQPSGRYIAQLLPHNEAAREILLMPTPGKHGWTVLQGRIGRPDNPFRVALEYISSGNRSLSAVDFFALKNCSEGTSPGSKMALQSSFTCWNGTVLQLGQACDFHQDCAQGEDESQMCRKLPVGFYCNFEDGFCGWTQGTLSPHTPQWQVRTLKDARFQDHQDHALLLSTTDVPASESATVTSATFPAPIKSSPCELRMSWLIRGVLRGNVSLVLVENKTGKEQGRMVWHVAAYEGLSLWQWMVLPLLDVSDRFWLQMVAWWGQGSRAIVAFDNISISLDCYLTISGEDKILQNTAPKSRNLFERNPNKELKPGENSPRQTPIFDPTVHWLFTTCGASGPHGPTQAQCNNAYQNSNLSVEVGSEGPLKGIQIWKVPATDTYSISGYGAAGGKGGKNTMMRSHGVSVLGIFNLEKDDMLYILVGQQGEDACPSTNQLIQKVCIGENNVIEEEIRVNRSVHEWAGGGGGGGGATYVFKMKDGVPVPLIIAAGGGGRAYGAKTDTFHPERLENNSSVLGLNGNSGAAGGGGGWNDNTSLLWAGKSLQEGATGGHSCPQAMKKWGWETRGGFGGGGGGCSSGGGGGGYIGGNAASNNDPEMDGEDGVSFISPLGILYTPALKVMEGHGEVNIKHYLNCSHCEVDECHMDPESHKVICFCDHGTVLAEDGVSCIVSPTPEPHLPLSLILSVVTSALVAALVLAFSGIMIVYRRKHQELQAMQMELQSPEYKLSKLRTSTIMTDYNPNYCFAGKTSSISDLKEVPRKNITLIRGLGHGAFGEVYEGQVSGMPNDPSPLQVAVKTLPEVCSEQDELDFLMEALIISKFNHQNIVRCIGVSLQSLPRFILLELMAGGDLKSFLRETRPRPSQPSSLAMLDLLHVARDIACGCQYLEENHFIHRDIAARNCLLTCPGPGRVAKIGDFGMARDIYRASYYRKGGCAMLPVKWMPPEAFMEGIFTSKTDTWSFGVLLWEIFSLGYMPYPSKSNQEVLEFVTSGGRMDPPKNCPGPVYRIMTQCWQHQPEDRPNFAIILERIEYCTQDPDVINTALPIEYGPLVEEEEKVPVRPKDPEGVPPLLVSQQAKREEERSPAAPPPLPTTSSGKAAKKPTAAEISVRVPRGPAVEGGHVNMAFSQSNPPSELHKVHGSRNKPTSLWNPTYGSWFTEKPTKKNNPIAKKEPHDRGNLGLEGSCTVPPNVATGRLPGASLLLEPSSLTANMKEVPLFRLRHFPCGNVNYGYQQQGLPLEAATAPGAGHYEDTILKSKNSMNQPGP
Chain of UniProt P11388 (whole entry, looked up): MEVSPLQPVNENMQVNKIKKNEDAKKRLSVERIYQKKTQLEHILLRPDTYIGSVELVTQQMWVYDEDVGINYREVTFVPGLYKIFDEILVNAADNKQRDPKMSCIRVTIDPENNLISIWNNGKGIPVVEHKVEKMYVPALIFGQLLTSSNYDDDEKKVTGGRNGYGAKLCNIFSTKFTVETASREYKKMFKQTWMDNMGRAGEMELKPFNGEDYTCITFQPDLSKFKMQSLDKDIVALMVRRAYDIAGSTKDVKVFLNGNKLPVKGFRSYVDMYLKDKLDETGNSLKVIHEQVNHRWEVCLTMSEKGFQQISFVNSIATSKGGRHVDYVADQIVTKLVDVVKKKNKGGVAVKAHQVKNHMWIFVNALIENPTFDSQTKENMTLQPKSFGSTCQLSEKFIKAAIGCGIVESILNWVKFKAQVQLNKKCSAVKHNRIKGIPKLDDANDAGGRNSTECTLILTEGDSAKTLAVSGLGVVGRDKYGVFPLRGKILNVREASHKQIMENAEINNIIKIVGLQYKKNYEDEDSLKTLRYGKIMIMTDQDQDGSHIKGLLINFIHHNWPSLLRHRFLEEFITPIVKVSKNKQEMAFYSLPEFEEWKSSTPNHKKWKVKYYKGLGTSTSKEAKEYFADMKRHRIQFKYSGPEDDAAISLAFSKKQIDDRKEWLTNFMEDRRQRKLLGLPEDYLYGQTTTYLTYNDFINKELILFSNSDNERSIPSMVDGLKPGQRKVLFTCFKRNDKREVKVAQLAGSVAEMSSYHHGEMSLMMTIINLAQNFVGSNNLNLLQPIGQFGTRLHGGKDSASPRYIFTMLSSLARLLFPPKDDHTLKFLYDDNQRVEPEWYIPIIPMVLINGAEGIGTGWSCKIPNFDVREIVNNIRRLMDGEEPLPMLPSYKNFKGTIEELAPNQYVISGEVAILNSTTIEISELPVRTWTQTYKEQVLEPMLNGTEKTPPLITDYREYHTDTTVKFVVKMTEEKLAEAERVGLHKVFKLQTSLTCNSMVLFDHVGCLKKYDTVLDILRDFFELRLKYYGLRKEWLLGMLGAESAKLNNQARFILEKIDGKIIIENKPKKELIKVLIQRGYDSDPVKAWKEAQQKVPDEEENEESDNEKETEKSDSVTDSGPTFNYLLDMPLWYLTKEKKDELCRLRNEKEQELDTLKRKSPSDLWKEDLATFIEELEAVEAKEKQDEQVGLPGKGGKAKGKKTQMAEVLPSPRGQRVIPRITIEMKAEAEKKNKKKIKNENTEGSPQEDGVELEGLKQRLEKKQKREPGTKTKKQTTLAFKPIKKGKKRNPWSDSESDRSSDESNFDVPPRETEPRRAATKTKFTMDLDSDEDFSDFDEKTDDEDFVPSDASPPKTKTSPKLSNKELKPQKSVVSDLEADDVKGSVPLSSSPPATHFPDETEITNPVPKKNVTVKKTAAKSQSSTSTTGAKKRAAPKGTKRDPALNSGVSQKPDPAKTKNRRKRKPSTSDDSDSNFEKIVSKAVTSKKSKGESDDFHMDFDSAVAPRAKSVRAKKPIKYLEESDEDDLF
Chain of UniProt P23204 (whole entry, unmodified, looked up): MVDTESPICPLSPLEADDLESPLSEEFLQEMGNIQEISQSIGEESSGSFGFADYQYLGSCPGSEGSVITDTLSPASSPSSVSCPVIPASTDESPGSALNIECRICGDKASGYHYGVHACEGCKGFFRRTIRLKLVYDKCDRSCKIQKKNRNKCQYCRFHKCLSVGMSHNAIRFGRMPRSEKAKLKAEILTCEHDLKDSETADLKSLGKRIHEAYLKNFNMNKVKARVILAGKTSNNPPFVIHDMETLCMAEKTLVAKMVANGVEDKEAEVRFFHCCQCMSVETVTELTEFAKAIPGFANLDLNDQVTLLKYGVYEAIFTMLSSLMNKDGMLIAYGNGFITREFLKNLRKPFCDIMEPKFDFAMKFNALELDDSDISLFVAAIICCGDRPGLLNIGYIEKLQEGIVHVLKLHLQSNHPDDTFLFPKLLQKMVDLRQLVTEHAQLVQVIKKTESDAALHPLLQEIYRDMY
Chain of UniProt Q9Y3R4 (whole entry, looked up): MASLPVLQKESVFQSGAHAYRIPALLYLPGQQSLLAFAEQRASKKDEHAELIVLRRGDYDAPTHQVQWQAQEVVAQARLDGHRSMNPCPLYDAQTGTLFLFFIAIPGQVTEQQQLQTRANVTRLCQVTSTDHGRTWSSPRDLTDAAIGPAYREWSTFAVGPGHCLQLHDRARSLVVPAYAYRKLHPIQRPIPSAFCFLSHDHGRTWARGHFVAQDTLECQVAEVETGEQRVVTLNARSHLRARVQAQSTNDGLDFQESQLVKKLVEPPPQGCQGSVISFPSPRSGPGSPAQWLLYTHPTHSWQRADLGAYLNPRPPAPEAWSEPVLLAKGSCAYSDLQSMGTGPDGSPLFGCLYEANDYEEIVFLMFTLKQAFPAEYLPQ

| SMILES | target or system | assay | test system | setting | how to read | quantity | value |
| --- | --- | --- | --- | --- | --- | --- | --- |
| O=c1nc(SCc2cc(F)cc(C(F)(F)F)c2)nc(SCc2ccc3sccc3c2)[nH]1 | DNA topoisomerase 2-alpha (TOP2A, Homo sapiens, UniProt P11388) | DNA cleavage, competition with etoposide | – | 7.8 µM, added: etoposide 50 µM | – | linear DNA | 13.8% and 10.5% |
| CN(Cc1cccnc1)C(=O)c1ccc([C@H]2[C@@H](F)[C@@H](F)C[C@@H](F)[C@H]2F)cc1 | – | hepatocyte stability | cryopreserved human hepatocytes | 1 µM | – | hepatic clearance | 11 mL/min/kg |
| COc1cc(N2CCC(N3CCN(C)CC3)CC2)ccc1Nc1ncc(Cl)c(Nc2ccccc2P(C)(C)=O)n1 | ALK tyrosine kinase receptor/Echinoderm microtubule-associated protein-like 4 (Homo sapiens, UniProt Q9HC35+Q9UM73) | degrader, immunoblotting, measured: ALK tyrosine kinase receptor/Echinoderm microtubule-associated protein-like 4 | Ba/F3 EML4-ALK | concentration not given, 24 h, unit not given | reference: untreated | protein level | 0.945 and 1.03 and 1.01 |
| Cc1cc2c(cc1N1C(=O)c3cccc4c(Cl)ccc(c34)C1=O)n(C)c(=O)n2C | Bromodomain and PHD finger-containing protein 3 (BRPF3, Homo sapiens, UniProt Q9ULD4) | – | – | 10 µM | – | delta Tm | 1.1 °C |
| CC(=O)N[C@H]1[C@H]([C@H](O)[C@H](O)CO)O[C@@](OC[C@H]2O[C@@H](Oc3ccc([N+](=O)[O-])cc3)[C@H](O)[C@@H](O)[C@H]2O)(C(=O)O)C[C@@H]1O | Sialidase-2 (Homo sapiens, UniProt Q9Y3R4) | substrate | – | 10 min, pH 5.0, 37 °C | – | Vmax | 0.0012 ± 0.0001 mM/s |
| O=C[C@H](O)[C@@H](O)[C@H](O[C@@H]1O[C@H](CO)[C@@H](O)[C@H](O)[C@H]1O)[C@H](O)CO | uncharacterized protein (Pelagibacter ubique, UniProt Q4FMK2) | isothermal titration calorimetry | Candidatus Pelagibacter ubique | concentration not given | – | binding | no binding |
| NCCCS(=O)(=O)O | Sodium- and chloride-dependent taurine transporter (SLC6A6, Homo sapiens, UniProt P31641, Y138A) | binding, microscale thermophoresis | – | 31.3 µM, room temperature, added: 50 nM labelled protein | higher = more binding | normalised MST signal | 0.263 |
| O=C(Nc1ccc(C2CCCCC2)cc1)c1cn[nH]c1 | – | – | mouse liver microsomes | 1 µM | – | hepatic clearance | 70 mL/min/kg |
| CC[C@H](C)[C@H](NC(=O)[C@H](Cc1ccccc1)NC(=O)[C@H](CCC(=O)O)NC(=O)[C@H](CCCNC(=N)N)NC(=O)[C@H](C)NC(=O)[C@H](C)NC(=O)[C@H](CCC(N)=O)NC(=O)[C@H](CCC(=O)O)NC(=O)[C@H](CCC(=O)O)NC(=O)[C@H](CC(C)C)NC(=O)[C@H](Cc1ccc(O)cc1)NC(=O)[C@H](CO)NC(=O)[C@H](CO)NC(=O)[C@@H](NC(=O)[C@H](CC(=O)O)NC(=O)[C@H](CO)NC(=O)[C@@H](NC(=O)[C@H](Cc1ccccc1)NC(=O)[C@@H](NC(=O)CNC(=O)[C@H](CCC(=O)O)NC(=O)[C@H](C)NC(=O)CCc1cnc[nH]1)[C@@H](C)O)[C@@H](C)O)C(C)C)C(=O)N[C@@H](C)C(=O)N[C@@H](Cc1c[nH]c2ccccc12)C(=O)N[C@@H](CC(C)C)C(=O)N[C@H](C(=O)N[C@@H](CCCNC(=N)N)C(=O)NCC(=O)N[C@@H](CCCNC(=N)N)C(=O)N[C@@H](CCCCNC(=O)COCCOCCNC(=O)COCCOCCNC(=O)CC[C@H](NC(=O)CCCCCCCCCCCCCCCCC(=O)O)C(=O)O)C(=O)NCC(=O)NCC(=O)N[C@@H](CO)C(=O)N[C@@H](CCCCNc1c(NCCCCCN(O)C(=O)CCC(=O)NCCCCCN(O)C(=O)CCC(=O)NCCCCCN(O)C(C)=O)c(=O)c1=O)C(=O)N[C@@H](CCCCNc1c(NCCCCCN(O)C(=O)CCC(=O)NCCCCCN(O)C(=O)CCC(=O)NCCCCCN(O)C(C)=O)c(=O)c1=O)C(=O)O)C(C)C | Glucagon-like peptide 1 receptor (GLP1R, Homo sapiens, UniProt P43220) | agonist, CRE luciferase reporter | BHK cells | metal-free DFO conjugate, added: 0% HSA | reference: parent peptide | fold potency loss | 6.3 |
| Cn1cc(-c2ccc(-c3cncc(Cl)c3N3CCC4(CCNC4=O)CC3)cc2)cn1 | COLO 205 | microarray, measured: EDN1 | – | concentration not given, 2 h, gene set Endothelin-1 | reference: untreated cells | fold change in expression | 2.01 |
| CN(CCOc1ccc(CC2SC(=O)NC2=O)cc1)c1ccccn1 (stereo not shown) | Peroxisome proliferator-activated receptor alpha (Ppara, Mus musculus, UniProt P23204, F272I) | intrinsic fluorescence quenching | – | concentration not given | – | binding | no binding |
| CC1CCCN(C(=O)c2cc3ncccn3n2)C1 (stereo not shown) | Transcription intermediary factor 1-beta, PHD-bromodomain (TRIM28, Homo sapiens, UniProt Q13263) | binding, affinity selection mass spectrometry | – | – | reference: other proteins in batch | fold enrichment | 0.992 |
| Nc1ncnc2c1ncn2[C@@H]1O[C@H](CO[P@](=O)(O)O[P@](=O)(O)O[P@@](=O)(O)S)[C@@H](O)[C@H]1O | GUK1 (Homo sapiens, UniProt Q16774) | binding, isothermal titration calorimetry | – | molar ratio 3.506, fitted curve | – | ΔH | -0.196 kcal/mol |
